{"data": "Measurements collected from several papers", "note": "Compare with care: the assays were run in different laboratories."}
{"SMILES": "COc1cccc2c(N3CCC(CCP(=O)(O)O)CC3)ncnc12", "test system": "C57BL/6 mice, female, cerebrospinal fluid", "setting": "subcutaneous, 100 mg/kg", "measurement": "half-life", "result": "10 h"}
{"SMILES": "Cc1c(Cc2cccc(OC(C)(C)C(=O)O)c2)c2ccc(C(=O)NCc3cccc(C(C)(C)C)c3)cc2n1CC1CCC1", "assay": "metabolic stability", "test system": "human, liver microsomes", "measurement": "half-life", "result": "0.367 h"}
{"SMILES": "O=C(c1ccnc(N2Cc3cn(Cc4ccc(F)cc4)nc3C2)n1)N1CCOCC1", "assay": "metabolic stability", "test system": "human, liver microsomes", "measurement": "half-life", "result": "5.47 h"}
{"SMILES": "COC1CN([C@H]2CC[C@H]([C@@]3(C)Oc4c(Cl)cc(C(=O)NCc5c(SC)cc(C)[nH]c5=O)c(C)c4O3)CC2)C1", "test system": "female CB17 SCID mice, KARPAS-422 xenograft, plasma", "setting": "25 mg/kg, day 1", "measurement": "half-life", "result": "1 h"}
{"SMILES": "C=CC(=O)Nc1cccc(Cn2ncc3cnc(Nc4cnn(CCOC)c4)nc32)c1", "tested on": "human VEGFR2", "assay": "KINOMEscan", "setting": "100 nM", "measurement": "binding", "result": "16%"}
{"SMILES": "Cc1c(Cc2cc(F)cc(OC(C)(C)C(=O)O)c2)c2ccc(C(=O)N[C@@H](C)c3ccc(C(C)(C)C)cc3)cc2n1CC1CCC1", "assay": "metabolic stability", "test system": "human, liver microsomes", "measurement": "half-life", "result": "> 1 h"}
{"SMILES": "CN(C)C(=O)c1cccc(N2Cc3cn(Cc4ccc(F)c(F)c4)nc3C2)c1", "assay": "metabolic stability", "test system": "human, liver microsomes", "measurement": "half-life", "result": "1.3 h"}
{"SMILES": "Cc1ncsc1-c1ccc(C(C)NC(=O)C2CC(O)CN2C(=O)C(NC(=O)CCCCCCCCCCN2CCCC(Nc3ncc(Cl)c(Nc4ccccc4S(=O)(=O)C(C)C)n3)C2)C(C)(C)C)cc1 (centres unmarked)", "tested on": "22Rv1", "assay": "RNA-seq, measured: SMCR8 mRNA", "setting": "concentration not given", "how to read": "reference: DMSO", "measurement": "log2 fold change", "result": -1.55}
{"SMILES": "O=C(NC1CCCCC1)c1ccnc(N2Cc3cn(Cc4ccc(F)cc4)nc3C2)n1", "assay": "metabolic stability", "test system": "human, liver microsomes", "measurement": "half-life", "result": "0.217 h"}
{"SMILES": "Cc1c(Cc2ccc(F)c(OC(C)C(=O)O)c2)c2ccc(C(=O)NC(C)c3ccc(C(C)(C)C)cc3)cc2n1CC(C)C (centres unmarked)", "assay": "metabolic stability", "test system": "human, liver microsomes", "measurement": "half-life", "result": "> 1 h"}
{"SMILES": "C=C(NC(=O)c1csc(-c2nc3c(cc2O)-c2nc(cs2)C(=O)NC(C(C)O)C(=O)NC(=C(C)OC)c2nc(cs2)C(=O)NC2c4nc(cs4)C(=O)NC(COC(=O)c4c5c6c(cccc6n4O)COC(=O)C(OC4CC(C)(O)C(N(C)C)C(C)O4)C2OC5)c2nc-3cs2)n1)C(N)=O (centres unmarked)", "test system": "female cynomolgus monkey, plasma", "setting": "intravenous, 3 mg/kg, single dose, infusion", "measurement": "half-life", "result": "5.79 h"}
{"SMILES": "CN(C)C(=O)c1cccc(N2Cc3cn(Cc4ccc(F)cc4Cl)nc3C2)c1", "assay": "metabolic stability", "test system": "human, liver microsomes", "measurement": "half-life", "result": "0.6 h"}
{"SMILES": "Cc1c(Cc2ccc(Cl)c(O[C@@H](C)C(=O)O)c2)c2ccc(C(=O)N[C@@H](C)c3ccc(C(C)(C)C)cc3)cc2n1C", "assay": "metabolic stability", "test system": "human, liver microsomes", "measurement": "half-life", "result": "> 1 h"}
{"SMILES": "C/C(N)=N/C(=N\\S(=O)(=O)c1ccc(C(F)(F)F)cc1)N1C[C@H](c2ccccc2)C(c2ccc(Cl)cc2)=N1", "test system": "male C57BL/6 mouse, heart", "setting": "intravenous, 10 mg/kg", "measurement": "half-life", "result": "2.8 h"}
{"note": "Excerpt of the above:"}
{"SMILES": "CN(C)C(=O)c1cccc(N2Cc3cn(Cc4ccc(F)c(F)c4)nc3C2)c1", "assay": "metabolic stability", "test system": "human, liver microsomes", "measurement": "half-life", "result": "1.3 h"}
